Measured values of several laboratories.
Every numbered part comes from another study and shows a few of its results, in no order. Substitutions count along the parent as printed.

Block 1 — target: CCNF, cyclin fold, Cln2 fusion (human); method: yeast growth competition, sequencing; sample: yeast; notes: weak parent motif; baseline: not given; direction: higher = stronger binding
Starting sequence: RP1L1 docking peptide (human); TLGLGPLSFTLED; partner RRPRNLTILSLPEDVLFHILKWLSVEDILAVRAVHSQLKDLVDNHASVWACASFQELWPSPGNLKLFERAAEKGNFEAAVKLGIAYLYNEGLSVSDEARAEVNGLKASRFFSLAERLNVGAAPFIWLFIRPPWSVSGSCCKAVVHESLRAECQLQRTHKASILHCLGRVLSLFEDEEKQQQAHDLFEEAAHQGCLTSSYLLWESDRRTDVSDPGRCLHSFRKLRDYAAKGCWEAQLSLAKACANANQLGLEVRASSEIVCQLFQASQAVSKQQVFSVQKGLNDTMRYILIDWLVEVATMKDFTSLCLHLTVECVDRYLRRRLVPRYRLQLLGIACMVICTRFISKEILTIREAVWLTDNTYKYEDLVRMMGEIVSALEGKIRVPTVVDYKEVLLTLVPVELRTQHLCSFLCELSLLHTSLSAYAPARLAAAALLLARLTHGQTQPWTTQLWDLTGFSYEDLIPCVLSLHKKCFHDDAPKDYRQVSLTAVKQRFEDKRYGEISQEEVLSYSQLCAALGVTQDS
Change | normalised enrichment score
TLGLGPLAFTLED [S8A] | -0.531
TLGLAPLSFTLED [G5A] | -0.697
TLGLGPASFTLED [L7A] | -0.839
TLGLGPLSATLED [F9A] | -0.341
TLALGPLSFTLED [G3A] | -0.59
TLGAGPLSFTLED [L4A] | -0.55

Block 2 — method: RNA Bind-n-Seq; molecule type: RNA; sample: in vitro; tested at: 365 nM; baseline: no-protein control; direction: higher = stronger binding
Target: RNA binding protein fox-1 homolog 2, RRM domain, GST-SBP tag (RBFOX2, Homo sapiens, UniProt O43251-10, residues 100-194)
Notes: natural RNA segment, single round, ends assumed
Constant ends, left off below: GGGAGUUCUACAGUCCGACGAUC … UGGAAUUCUCGGGUGCCAA
Residues (chain): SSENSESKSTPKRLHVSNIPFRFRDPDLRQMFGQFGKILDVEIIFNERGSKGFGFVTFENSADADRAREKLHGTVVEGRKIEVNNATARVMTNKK
Sequence | RBNS enrichment (R)
UUGUUGUUCUGUGUGGAGCGUGAGGUGAGAAAACCCCUCUGAAAAGAUGUGGUCGGGGCCACGCUUCCCACUGGUUCUGCAGUGAGGAGUUGGGGCGGGUGAGCCAAAGC | 0.358
GGUGUUCUUAGGUAAUGGGUUGUAGAUACUGAGUCUUCCUUUCCUUUUCUGACCCUUCUCGAGGACAUUUGCUUUCCUCACACUUUUGUAGUCUCUCUUUACAUAUUACU | 0.979
CCCAUGUGCUCGGUGUUCAGUGGUGUAUAUUUCUUCUCCCAGACAUGGGGCACACGCCCCAAGGGACAUGAUCCUCUCCUUAGUCUUAGCUCAUGGGGCUCUUUAUAAGG | 0.458
UAUAUUUAAGUGGUAAUGAAAAAUAGUAAUCAUAGUAAAACGCAACAAGAAGAAAACCAACCCAAACCAGUGAAGUUUUUUAGAACCUUUAGAAGGGUGGUCUUUAUUCA | 1.22
GGAUGGCAUUUUCCAGGGCAGGAGAAAGUAUGAGAGCCUCAGGAAACCCCAUCAAGGACCGAGUAUGUGUCUGGUUCCUUGGGUGGGACGAUUCCUGACCACACUGUCCA | 3.4
GCUAGAACCCUAGGGUCCCUGCUGAGUUCCACAGGGGUGGCCAUCACACACCUGUAUCCCUGGUAUCUAAGGCCUGUCCUCUAGUGCGAUUGUCAUCUCCAGGACUAUGA | 0.211
GUGGAUACUGCAUGUGAACUAUGGUUUUGAACUCUUCCUCCUCCUCCUUGAGAGCCCCGCCCUGCGCCCGCGUGGUGCCUGCCUGCCAGGCCUGGGGCGUGCAGCCGGGG | 9.15
AACCACUAUCCCCAGUAUGUAAUGGCUGAAUUAAUAUGUAAUCAACUGCAUUGUAUCUAAAGCCUUAGAACUAGUCAGGUGCUCCUCCCACCCAAUACCAUUUCUUACCC | 0.327

Block 3 — method: protein binding microarray; molecule type: double-stranded DNA, one strand shown; sample: in vitro; tested at: not given; baseline: not given; direction: higher = stronger binding
Target: Histone acetyltransferase KAT6A, both winged helices, GST fusion (KAT6A, Homo sapiens, UniProt Q92794, residues 1-181)
Notes: 8-mer, flanks averaged, mean of 2 arrays, mostly near background
Construct (chain): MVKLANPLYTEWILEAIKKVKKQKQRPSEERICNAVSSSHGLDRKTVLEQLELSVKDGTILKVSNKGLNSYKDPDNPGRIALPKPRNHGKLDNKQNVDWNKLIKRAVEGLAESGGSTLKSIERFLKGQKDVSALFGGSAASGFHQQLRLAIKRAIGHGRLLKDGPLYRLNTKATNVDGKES
Sequence | E-score
ACCCTATC | -0.0472
CTGGTATA | -0.128
CCCAACAG | -0.235
ACCCGTTC | 0.152
CTTGCAAG | 0.0974
ACCACCCC | -0.143
ATTAATGC | 0.0274
GAGGTAAA | -0.194
CACGAATC | 0.00258
CAGGTCCC | 0.0469
ACGATTAA | 0.046
GTCGTAGA | -0.0709
CCCTAAAG | -0.0824
GCTCCGAC | 0.0899
AAGCCCGC | 0.212
CGTCCGAG | 0.183
AGAACCGA | -0.00089
ATCATCAA | -0.0315
AGACCCGC | 0.23
GTTCTGTA | -0.1
TACCCTCA | -0.155
ATGGCGTC | 0.144
CCTCCACC | -0.173
ATTACTGG | -0.277
AAGGGCGT | 0.166

Block 4 — method: universal PBM; molecule type: double-stranded DNA, one strand shown; sample: in vitro; tested at: not given; direction: higher = stronger binding
Target: Sal-like protein 4, full length isoform B (SALL4, Homo sapiens, UniProt Q9UJQ4-2, residues 1-616)
Notes: 8-mer, flanks averaged, mean of replicates
Sequence | E-score
CTGACAGA | -0.0086
CAGCTTGG | -0.158
AACACCTG | -0.0331
ACGCACTA | -0.0137
AATCGACA | 0.169
CTCTGGGC | -0.18
GCGAACGA | -0.149
ATGCAGGG | -0.234
CGGATTTC | -0.195
TCGCCTAA | -0.128
AATAATTA | 0.435
CTAGCTAG | -0.098
ATCTACTA | 0.35
TCAGACGA | -0.0488
TCCGTTAA | -0.0597
TCCTTTAA | 0.126

Excerpt of the above (block 3):
Sequence | E-score
CCCTAAAG | -0.0824
GCTCCGAC | 0.0899
AAGCCCGC | 0.212
CGTCCGAG | 0.183
AGAACCGA | -0.00089
ATCATCAA | -0.0315
AGACCCGC | 0.23
GTTCTGTA | -0.1
